Measurements from different studies.
Numbered parts are unrelated; each lists some results of a single study. Substitutions count along the parent as printed.

Series 1
Target: UBE2M UBC core domain (UniProt P61081)
Technique: yeast two-hybrid
Sample: yeast
Setting: mostly zero background
Baseline: not given
Reading: higher = stronger interaction
Endpoint: lacZ reporter activity
B1: PHF21A RING domain (UniProt Q96BD5); chain SPTSTDGDIHEDFCSVCRKSGQLLMCDTCSRVYHLDCLDPPLKTIPKGMWICPRCQDQMLKKEEAIPW
B2: CUL9 RING domain (UniProt Q8IWT3); chain AQAVPVRPDHCPVCVSPLGCDDDLPSLCCMHYCCKSCWNEYLTTRIEQNLVLNCTCPIADCPAQPTGAFIR
B3: IRF2BPL RING domain (UniProt Q9H1B7); chain SPMANSGPLCCTICHERLEDTHFVQCPSVPSHKFCFPCSRESIKAQGATGEVYCPSGEKCPLVGSNVP
B4: RC3H2 RING domain (UniProt Q9HBD1); chain QAAQWTEFLSCPICYNEFDENVHKPISLGCSHTVCKTCLNKLHRKACPFDQTAINTDIDVL
B5: TRIM63 RING domain (UniProt Q969Q1); chain PMENLEKQLICPICLEMFTKPVVILPCQHNLCRKCANDIFQAANPYWTSRGSSVSMSGGRFRCPTCRHEVIMDRHGV
Target sequence (chain): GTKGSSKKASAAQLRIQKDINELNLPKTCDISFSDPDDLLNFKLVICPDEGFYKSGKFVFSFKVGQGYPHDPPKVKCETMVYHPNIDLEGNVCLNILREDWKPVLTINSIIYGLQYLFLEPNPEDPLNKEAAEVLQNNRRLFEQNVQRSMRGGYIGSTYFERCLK
QHHELTSLFECPVCFDYVLPPILQCQAGHLVCNQCRQKLSCCPTCRGALTPSIRNL (SIAH2 RING domain (UniProt O43255)): 0
QLQDIKEQTMCPVCLDRLKNMIFLCGHGTCQLCGDRMSECPICRKAIERRILLY (MIB1 RING domain (UniProt Q86YT6)): 3080
B1 (PHF21A RING domain): 0
B2 (CUL9 RING domain): 0
KTLSRFGIQPCSICLGDAKDPVCLPCDHVHCLRCLRAWFASEQMICPYCLTALPDEFSPA (RNF213 RING domain (UniProt Q63HN8)): 0
QLRRLQEERTCKVCMDKEVSIVFIPCGHLVVCKDCAPSLRKCPICRSTIKGTVRTF (BIRC3 RING domain (UniProt Q13489)): 0
VTLSLTLPITCHICLGKVRQPVICINNHVFCSICIDLWLKNNSQCPACRVPITPENPCK (OBI1 RING domain (UniProt Q5W0B1)): 0
B3 (IRF2BPL RING domain): 0
B4 (RC3H2 RING domain): 0
B5 (TRIM63 RING domain): 0
QLRRLQEERTCKVCMDKEVSVVFIPCGHLVVCQECAPSLRKCPICRGIIKGTVRTF (BIRC2 RING domain (UniProt Q13490)): 0

Series 2
Target: CCNA2, cyclin fold, Cln2 fusion (human)
Technique: yeast growth competition, sequencing
Sample: yeast
Setting: weak parent motif
Baseline: not given
Reading: higher = stronger binding
Endpoint: normalised enrichment score
Parent: E2F8 docking peptide (human); FVPQRKLEVSTED
FVAQRKLEVSTED [P3A]: -0.021
FVPQRKLEFSTED [V9F]: 2.52
FVPQRKLEVSTAD [E12A]: -0.197
FVPQAKAEVSTED [R5A L7A]: -0.478
FVPQRKAEVSTED [L7A]: 0.0171
FVPQRKLEVSTEA [D13A]: 0.203
FVPQRKLEVSAED [T11A]: -0.37
FVPQKKLEFSTED [R5K V9F]: 1.06
FVPQKKLEVSTED [R5K]: -0.104
FVPQAKLEVSTED [R5A]: -0.306
FVPARKLEVSTED [Q4A]: -0.38

Series 3
Target: ABI1, truncated, D143A, DHFR fusion (Arabidopsis thaliana)
Technique: DHFR PCA, deep sequencing
Sample: yeast
Setting: methotrexate growth selection, single substitutions
Added: (+)-ABA 0.0091 µM
Baseline: wild-type fitted maximum
Reading: higher = stronger binding
Endpoint: relative binding score
Parent: PYL1, truncated, DHFR fusion (Arabidopsis thaliana); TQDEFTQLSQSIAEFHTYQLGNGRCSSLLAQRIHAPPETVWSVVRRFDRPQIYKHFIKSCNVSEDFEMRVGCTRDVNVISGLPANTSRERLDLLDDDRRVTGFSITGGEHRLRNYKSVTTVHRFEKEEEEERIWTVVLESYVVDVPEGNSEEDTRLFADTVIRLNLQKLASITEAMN
A158K: 1.14%
R155S: 0.93%
D144K: -3.04%
T106P: -1.18%
Y53H: 4.49%
D3L: 22.2%
E89V: 0.434%
Y141P: -1.22%
R46N: 2.58%
D3N: 23.6%
E109D: 84.8%
D144S: -3.54%
S104N: -5.87%
F124M: 57.9%
T135V: -12.7%
V40W: -3.01%
F66E: -0.739%
I52P: -3.11%
Q10A: 43.7%

Series 4
Target: Interferon regulatory factor 5, full length, phosphomimetic (IRF5, Homo sapiens, UniProt Q13568-2, residues 1-514, S451D/S453D/S456D/S462D)
Technique: protein-binding microarray
Molecule type: double-stranded DNA, one strand shown
Sample: in vitro
Tested at: 940 nM top
Setting: 60-bp whole probe
Added: salmon DNA 0.4 mg/ml
Baseline: random background probes
Reading: higher = stronger binding
Endpoint: fitted relative affinity
Shared flanks, not repeated: GCCTAGCAC … GTCTTGATTCGCTTGACGCTGCTG
TTAGGTTCCGGGTTCGGTTAGTGCTAG: 1.71 z-score
GACCATTTCAGTTCCGAGACGTGCTAG: 1.21 z-score
GACGGTTTCCTTCTACTGACGTGCTAG: 1.86 z-score
TTAGGTTTCCTCCTCCTTTAGTGCTAG: 1.45 z-score
TCACTCACTCACAGACTCACGTGCTAG: 0.438 z-score
TTAGATATCAGTATGGATTAGTGCTAG: -0.192 z-score
TTAGGTATCGGATATCGGTTAGTGCTA: 4.94 z-score
TTAGGTTTCGACTTTCCGTTAGTGCTA: 8.94 z-score
GACGAACTGAGTCTCGACACGTGCTAG: 0.993 z-score
TTAGCTTTCGGGTATCGATTAGTGCTA: 5.73 z-score
TTAGGATTCCTTCTCCTTTAGTGCTAG: 0.451 z-score
TTAGATATCGGGGCTGGATTAGTGCTA: 0.241 z-score
TTTAGATTTTTTTTCCTAATGTGCTAG: 0.8 z-score
CACGGACTGGGTTTCGGGACGTGCTAG: 2.61 z-score
GACGGTTTCGGTATGGGGACGTGCTAG: 12.9 z-score
GACGGTCTCCTTATCCTGGCGTGCTAG: 0.502 z-score
TTACGTCTCCTACTGCTTTAGTGCTAG: 0.707 z-score
TTAGGTATCCTTTACCTTTAGTGCTAG: 0.367 z-score
TAAGATATCAGTTTCGATTAGTGCTAG: 8.06 z-score
TTAGGTTCCCTGTTCCTTTAGTGCTAG: 0.169 z-score
GGAGGCCTCTTCATTCATTAAGTGCTA: -0.00952 z-score
TCATATTAAATTTTCACACTGTGCTAG: 0.763 z-score
CCAAATCTGTGTTATTAAAATGTGCTA: 0.734 z-score
TTAGGACTGGAACTGGGTTAGTGCTAG: -0.633 z-score

Excerpt of the above (series 4):
TTAGGTTCCGGGTTCGGTTAGTGCTAG: 1.71 z-score
GACCATTTCAGTTCCGAGACGTGCTAG: 1.21 z-score
GACGGTTTCCTTCTACTGACGTGCTAG: 1.86 z-score
TTAGGTTTCCTCCTCCTTTAGTGCTAG: 1.45 z-score
TCACTCACTCACAGACTCACGTGCTAG: 0.438 z-score
TTAGATATCAGTATGGATTAGTGCTAG: -0.192 z-score
TTAGGTATCGGATATCGGTTAGTGCTA: 4.94 z-score
TTAGGTTTCGACTTTCCGTTAGTGCTA: 8.94 z-score
GACGAACTGAGTCTCGACACGTGCTAG: 0.993 z-score
